# Measured values from different studies.
# Parts stem from different laboratories: compare values within a part only. Positions count from the first letter of the parent shown.

# Sample 1
# Target: CREB3L4, bZIP domain (human)
# Technique: DHFR protein complementation
# Sample: yeast
# Notes: single substitutions, most at no-binding floor
# Baseline: wild-type JUN-FOS pair
# Direction: higher = stronger binding
# Starting sequence: JUN, bZIP domain (human); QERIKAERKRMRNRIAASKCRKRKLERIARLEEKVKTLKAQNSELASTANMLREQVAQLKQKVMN; partner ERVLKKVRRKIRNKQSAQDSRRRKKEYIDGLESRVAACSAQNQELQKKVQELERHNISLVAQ
Variant,binding fitness [natural log]
M51L,-1.38
R53N,-1.38
K36W,-1.51
E54N,-1.43
A49Y,-1.45
A29F,-1.41
A40I,-1.48
T37L,-1.3

# Sample 2
# Target: CCNA1, cyclin fold, Cln2 fusion (human)
# Technique: yeast growth competition, sequencing
# Sample: yeast
# Notes: weak parent motif
# Baseline: not given
# Direction: higher = stronger binding
# Starting sequence: RP1L1 docking peptide (human); TLGLGPLSFTLED; partner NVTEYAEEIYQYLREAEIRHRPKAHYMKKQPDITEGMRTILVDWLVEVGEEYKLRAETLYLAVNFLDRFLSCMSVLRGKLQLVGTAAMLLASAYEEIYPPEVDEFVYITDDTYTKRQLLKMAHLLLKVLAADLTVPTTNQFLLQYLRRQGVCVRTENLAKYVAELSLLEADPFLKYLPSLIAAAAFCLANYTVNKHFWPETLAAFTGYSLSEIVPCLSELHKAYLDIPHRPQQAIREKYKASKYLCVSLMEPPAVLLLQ
Variant,normalised enrichment score
TLGLGPLSATLED [F9A],-0.0797
ALGLGPLSFTLED [T1A],-0.559
TLGLAPLSFTLED [G5A],-0.563
TLGLGPLSFTAED [L11A],-0.457
TAGLGPLSFTLED [L2A],-0.676
TLGLGPLSFTLAD [E12A],-0.467

# Sample 3
# Target: ABI1, truncated, D143A, DHFR fusion (Arabidopsis thaliana)
# Technique: DHFR PCA, deep sequencing
# Sample: yeast
# Notes: methotrexate growth selection, single substitutions
# Together with: (+)-ABA 1.4 µM
# Baseline: wild-type fitted maximum
# Direction: higher = stronger binding
# Starting sequence: PYL1, truncated, DHFR fusion (Arabidopsis thaliana); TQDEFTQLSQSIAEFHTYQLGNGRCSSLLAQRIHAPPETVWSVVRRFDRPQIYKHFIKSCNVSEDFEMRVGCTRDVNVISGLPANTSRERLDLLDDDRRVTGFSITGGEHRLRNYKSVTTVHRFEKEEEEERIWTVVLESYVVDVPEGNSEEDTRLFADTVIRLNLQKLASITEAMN
Variant,relative binding score
L29A,2.34%
W134N,40.7%
Q31K,42.5%
V100D,-3.55%
E128L,45.1%
D159S,-4.89%
D153T,-11.6%
V143H,-0.695%
E139T,74.2%
N85Y,58.6%
T135Q,-11.7%
E131P,84.4%
E147P,48.8%
E89G,4.77%
R46L,-1.97%

# Mixed results
Molecule,target,test,test system,setting,how to read,endpoint,value
"PhoQ, residues 284 288 289 292 302 303 NLALSC","PhoP, residues 12 14 15 18 19 NQFFI (Escherichia coli, UniProt P23836)","Sort-seq, measured: YFP reporter",E. coli,"PhoQ-PhoP variant library, together with: 10 µM Mg2+","baseline: high Mg2+ state, higher = stronger signaling",fold induction,1.9
